# Assay results of several laboratories.
# Each numbered part is a random draw from the data of one study; scales do not carry over between parts.

# Block 1 — observed: enzyme activity; action: inhibitor; tested at: 0.5 µM; baseline: control
# Target: Tyrosine-protein kinase Fes/Fps (FES, Homo sapiens, UniProt P07332)
SMILES,remaining activity
O=C1c2ccccc2-c2nc3nnnn3nc21,87.5%
CNc1cc2c(Nc3cccc(Br)c3)ncnc2cn1,96.9%
CCCCc1c(-c2ccc(O)cc2)[nH]c2nccnc12,64.5%
CC(C)n1cnc2c(Nc3cccc(Cl)c3)nc(NCCO)nc21,66.2%
NC(=O)c1ccc(-c2nc(-c3ccc4c(c3)OCCO4)c(-c3ccccn3)[nH]2)cc1,98.4%
N#CC(c1ccnc(NCCc2cccnc2)n1)c1nc2ccccc2s1 (centres unmarked),92.8%

# Block 2 — cell line: A-375; tested at: 100 µM; time: 36 h
SMILES,viability
CC(C)(O/N=C(\C(=O)N[C@@H]1C(=O)N2C(C(=O)[O-])=C(C[n+]3ccccc3)CS[C@H]12)c1csc(N)n1)C(=O)O,112%
CC1(C)O[C@@H]2C[C@H]3[C@@H]4C[C@H](F)C5=CC(=O)C=C[C@]5(C)[C@@]4(F)[C@@H](O)C[C@]3(C)[C@]2(C(=O)CO)O1,101%
CCCCS(=O)(=O)N[C@@H](Cc1ccc(OCCCCC2CCNCC2)cc1)C(=O)O,109%
COc1cc2nc(N3CCN(C(=O)C4COc5ccccc5O4)CC3)nc(N)c2cc1OC (centres unmarked),0.649%

# Block 3 — tested at: 1 µM
# SMILES: C=CC(=O)N1CCC([C@@H]2CCNc3c(C(N)=O)c(-c4ccc(Oc5ccccc5)cc4)nn32)CC1
target,observed,action,inhibition [%]
"CSNK2A2 (Homo sapiens, UniProt P19784)",enzyme activity,inhibitor,3
"CIT (Homo sapiens, UniProt O14578)",enzyme activity,inhibitor,14
"GRK7 (Homo sapiens, UniProt Q8WTQ7)",enzyme activity,inhibitor,11
"EPHA6 (Homo sapiens, UniProt Q9UF33)",cell-free assay,,3
"MAPK6 (Homo sapiens, UniProt Q16659)",enzyme activity,inhibitor,4

# Block 4 — host: human; sample: microsomes or S9; tested at: 2 µM; time: 0.5 h
Compound,remaining compound [%]
COCc1cc(=O)n2c(n1)N(Cc1cccc(C#N)c1)CC2,83.2
Cc1ccc(C)c(C[S+]([O-])Cc2cc(=O)n(C)c(=O)n2C)c1 (centres unmarked),70.2
Cl/C(=C/c1cccc2nccn12)c1nc2ccccc2s1,0.779
CCOc1ccc(C(=O)C2=CN(c3ccc(C#N)cc3)c3ccccc3S2(=O)=O)cc1,59

# Block 5 — observed: cell-free assay; technique: competition with immobilised ligand; tested at: 1 µM
# SMILES: O=C(O)c1cc(-c2ccc(C3CCNCC3)cc2)c2ccc(-c3ccc(C(F)(F)F)cc3)cc2c1
target,remaining binding [%]
"TRPM6 (Homo sapiens, UniProt Q9BX84)",100
"EPHA4 (Homo sapiens, UniProt P54764)",100
"CAMK2G (Homo sapiens, UniProt Q13555)",100
"ALK (Homo sapiens, UniProt Q9UM73, L1196M)",100
"MAP3K20 (Homo sapiens, UniProt Q9NYL2)",100
"PRKAA1 (Homo sapiens, UniProt Q13131)",100
"CAMK1G (Homo sapiens, UniProt Q96NX5)",100
"MAP3K12 (Homo sapiens, UniProt Q12852)",100
"DCLK1 (Homo sapiens, UniProt O15075)",84
"MARK1 (Homo sapiens, UniProt Q9P0L2)",100
"HIPK4 (Homo sapiens, UniProt Q8NE63)",100
"MYLK3 (Homo sapiens, UniProt Q32MK0)",100
"Mast/stem cell growth factor receptor Kit, autoinhibited (KIT, Homo sapiens, UniProt P10721)",99
"Tyrosine-protein kinase ABL1, phosphorylated (ABL1, Homo sapiens, UniProt P00519, H396P)",86
"NUAK1 (Homo sapiens, UniProt O60285)",100
"STK17A (Homo sapiens, UniProt Q9UEE5)",100

# Repeated from above (block 5):
target,remaining binding [%]
"Tyrosine-protein kinase ABL1, phosphorylated (ABL1, Homo sapiens, UniProt P00519, H396P)",86
"EPHA4 (Homo sapiens, UniProt P54764)",100
"MYLK3 (Homo sapiens, UniProt Q32MK0)",100
